# Measured values collected from several papers.
# Every numbered part comes from another study and shows a few of its results, in no order. Changes are numbered by the printed parent chain.

# Series 1 — technique: universal PBM; molecule type: double-stranded DNA, one strand shown; matrix: in vitro; concentration: not given; reading: higher = stronger binding
# Target: Sal-like protein 4, full length isoform B (SALL4, Homo sapiens, UniProt Q9UJQ4-2, residues 1-616)
# Setting: 8-mer, flanks averaged, mean of replicates
Oligonucleotide,E-score
ATAAGATC,0.12
ACACTGTC,0.043
CGAATACG,-0.0129
AAAATACG,0.206
ACCGATGG,-0.13
CCGACTAC,-0.164
CGATTCAC,-0.00385
ATCTACCA,0.177
AAAAACCC,-0.0545
ACCGTCAC,-0.152
GTATCCAC,0.0112
CAACCTTA,0.0869
TCGGGCCA,-0.33
TAACGGTA,0.133
CTCATAGC,-0.0435
CTTCGGCC,-0.0838
CTTCACCC,-0.0356
TAAATCTA,0.231
GGATGCAA,0.0871
AGCCTGAC,-0.206

# Series 2 — technique: protein binding microarray; molecule type: double-stranded DNA, one strand shown; matrix: in vitro; concentration: not given; reference: not given; reading: higher = stronger binding
# Target: Histone acetyltransferase KAT6A, both winged helices, GST fusion (KAT6A, Homo sapiens, UniProt Q92794, residues 1-181)
# Setting: 8-mer, flanks averaged, mean of 2 arrays, mostly near background
# Construct (chain): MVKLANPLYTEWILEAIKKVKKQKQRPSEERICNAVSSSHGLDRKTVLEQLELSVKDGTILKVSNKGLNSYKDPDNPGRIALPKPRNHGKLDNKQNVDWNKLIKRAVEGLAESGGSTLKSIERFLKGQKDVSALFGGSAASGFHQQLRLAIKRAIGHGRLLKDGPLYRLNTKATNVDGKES
Oligonucleotide,E-score
CGGACCAG,0.181
GCGCATGA,0.217
GAATGTAA,-0.0877
AAAGCTGT,-0.0208
GGAGATAA,-0.0508
ACGCCTCC,-0.0132
ACTTATTA,-0.192
TCCTCCAA,-0.267
AGATTGTC,0.0141
GGGTCTAC,-0.07
GCAGTCAA,-0.0742
ATTGCGGA,0.102
GGCTAACC,0.0204
CTAGCTAG,-0.0313
CCACTCGG,-0.0767
CGTTCTTA,0.029

# Series 3 — technique: RNA Bind-n-Seq; molecule type: RNA; matrix: in vitro; concentration: 200 nM; setting: whole 134-nt RNA, ends assumed; with: 150 mM LiCl; reference: input library; reading: higher = stronger binding; each molecule: 7-deaza-guanosine replaces G
# Target: Ras GTPase-activating protein-binding protein 1, full length (G3BP1, Homo sapiens, UniProt Q13283)
# UniProt Q13283, sequence (whole entry, looked up): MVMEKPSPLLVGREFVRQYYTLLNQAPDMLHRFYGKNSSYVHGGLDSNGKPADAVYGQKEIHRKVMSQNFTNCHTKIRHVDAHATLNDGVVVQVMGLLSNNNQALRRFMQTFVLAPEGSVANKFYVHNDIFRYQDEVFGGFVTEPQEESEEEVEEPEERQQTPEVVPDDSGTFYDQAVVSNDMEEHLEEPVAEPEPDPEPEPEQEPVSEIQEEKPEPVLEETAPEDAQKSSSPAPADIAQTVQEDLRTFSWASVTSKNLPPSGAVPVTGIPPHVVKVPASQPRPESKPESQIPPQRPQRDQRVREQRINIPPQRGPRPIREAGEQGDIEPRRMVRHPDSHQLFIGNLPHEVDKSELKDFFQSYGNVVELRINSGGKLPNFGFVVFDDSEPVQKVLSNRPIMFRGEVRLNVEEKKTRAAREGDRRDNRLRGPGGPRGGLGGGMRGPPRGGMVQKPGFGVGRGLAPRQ
# Constant ends, left off below: GGGAGUUCUACAGUCCGACGAUC … UGGAAUUCUCGGGUGUCAAGG
Oligonucleotide,log2 enrichment
UAACUUUAGAGGAGGAUCUGAUGGAUAUGGCAGUGGACGUGGAUUUGGGGAUGGCUAUAAUGGGUAUGGAGGAGGACCUGGAGGUGGAAA,0.151
UGGUGACCUACCUGGACGUCCGGAGCUGCCUUGGACACCUAGGCUACCUGGGCUACCCCACCCUCUGUGAGCAGGACCAGGCCCAUGCCA,-0.381
CCUCAAGUCCUGUGCUACACAUCGUAUGUACCGAAUCGGAGGAAAGGAAAGGAAAGUAUUAUGUUACGCCGUUCGGAUCUGCACUUCCAG,-0.746
UGUUGUCUGGGUUUGGGGGUCGAGUAGAUGCGGGGCAGCCGGAGCUGUUGACGGAAAGGAGUAGCCCCAAAGGAGGGCAUGUGAAGUCGC,0.102
GCAGGAAGUAAAAACAAAUGGAAAUGCUUCGGAUAGUGGCAGGGGUGGGGGUCGCUAAGGAAAGGGUGGGAUGGGAGUGGGUAAAGAGUU,-0.245
UGGCCCUGGUGGCAUGCGGGGGGGAAGAGGUGGCCUCAUGGAUCGUGGUGGUCCCGGUGGAAUGUUCAGAGGUGGCCGUGGUGGAGACAG,0.386
AUUCUAUAAAUGGCAAGUAAGCCUGAAGUGAGGAUACUGCAAUUUUCGGAGAAAAGAACAGCAGCUCUUUAAGUGUUUGCAUUUUCUAUU,-2.18
AGUCCUGUGCUACACAUCGUAUGUACCGAAUCGGGGCCCGGGGCCCGGGGCCCGGGGAAAGUAUUAUGUUACGCCGUUCGGAUCUGCACU,-1
UCCUCAAGUCCUGUGCUACACAUCGUAUGUACCGAAUCGGGCGGGCGGCGGGAAAGUAUUAUGUUACGCCGUUCGGAUCUGCACUUCCAG,1.04
CGGUCAGACUUUGUGUUACAUAAAUUAACACUGUUCUCAGGUAAUGAGAGAUCCAAACACCAAGCGCUCCAGGGGCUUUGGGUUUGUCAC,-1.22
CUCAAGUCCUGUGCUACACAUCGUAUGUACCGAAUCGGGGUGGGUGGGGUGGGGAAAGUAUUAUGUUACGCCGUUCGGAUCUGCACUUCC,-0.492

# Series 4 — target: CCNA1, cyclin fold, Cln2 fusion (human); technique: yeast growth competition, sequencing; matrix: yeast; setting: weak parent motif; reference: not given; reading: higher = stronger binding
# Starting sequence: E2F1 docking peptide (human); PPVKRRLDLETDH; partner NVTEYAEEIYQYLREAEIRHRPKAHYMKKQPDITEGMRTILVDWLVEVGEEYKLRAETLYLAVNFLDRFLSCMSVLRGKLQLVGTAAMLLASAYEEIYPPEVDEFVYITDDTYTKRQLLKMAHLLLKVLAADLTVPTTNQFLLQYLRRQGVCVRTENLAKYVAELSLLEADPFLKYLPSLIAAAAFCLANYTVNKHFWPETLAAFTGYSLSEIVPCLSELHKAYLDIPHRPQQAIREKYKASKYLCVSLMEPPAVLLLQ
Variant,normalised enrichment score
E10F,0.54
V3A,0.749
H13Y,0.617
D8H,0.195
P2W,0.538
K4T,-0.0727
V3Q,0.214
P2Q,0.736
V3P,0.52
L7H,0.226
L9F,1.41
L7T,0.418
V3T,0.286
P1N,0.649
P2G,0.439
R6E,0.414
T11R,0.383
R5H,0.341
L7P,0.308
P1L,0.798
V3C,0.639
R6P,0.13
H13T,0.633

# Series 5 — technique: protein-binding microarray; molecule type: double-stranded DNA, one strand shown; matrix: in vitro; concentration: 2540 nM top; setting: 60-bp whole probe; with: salmon DNA 0.4 mg/ml; reference: random background probes; reading: higher = stronger binding; constant ends, left off below: GCCTAGCAC … GTCTTGATTCGCTTGACGCTGCTG
# Target: Interferon regulatory factor 3, full length, phosphomimetic (IRF3, Homo sapiens, UniProt Q14653, residues 1-427, S386D/S396D/S398D/S402D/T404D/S405D)
# Residues (chain): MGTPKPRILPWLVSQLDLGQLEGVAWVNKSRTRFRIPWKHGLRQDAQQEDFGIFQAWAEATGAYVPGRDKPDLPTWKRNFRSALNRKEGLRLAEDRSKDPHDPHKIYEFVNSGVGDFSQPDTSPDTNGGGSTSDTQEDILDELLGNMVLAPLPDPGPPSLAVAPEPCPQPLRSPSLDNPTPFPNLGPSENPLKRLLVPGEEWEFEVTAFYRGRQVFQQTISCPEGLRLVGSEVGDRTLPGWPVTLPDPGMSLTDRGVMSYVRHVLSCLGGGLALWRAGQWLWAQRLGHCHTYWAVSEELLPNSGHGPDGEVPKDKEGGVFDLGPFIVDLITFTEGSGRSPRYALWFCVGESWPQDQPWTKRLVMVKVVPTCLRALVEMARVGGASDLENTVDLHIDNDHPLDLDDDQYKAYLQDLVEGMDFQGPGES
Oligonucleotide,fitted relative affinity
CTAATTCTCTTTTCACTTTCGTGCTAG,3.2 z-score
TTAGGACTGGACACGGGGTTAGTGCTA,-0.835 z-score
GACTGACTGGGACTGGGGACGTGCTAG,-0.699 z-score
TCATGTTGCTGTTTGAGACTGTGCTAG,2.4 z-score
GTCGAACTGAGACTGGAGACGTGCTAG,-0.0575 z-score
GACGGACTGGCCACTGGGGACGTGCTA,-0.949 z-score
GACAGTTTCCTTTTCCTGACGTGCTAG,10.6 z-score
GACAGTTTCGGTATCGGGACGTGCTAG,8.68 z-score
GACGGTATCCTTTTCCTGGCGTGCTAG,7.7 z-score
CGCCCTCTCAACCATCCTGGGGTGCTA,0.13 z-score
TTAGCTATCAGACTGGATTAGTGCTAG,-0.13 z-score
AATCTTTTCACTTTCTTTAAGTGCTAG,2.94 z-score
TTAGGTTTTGGGACTGGGTTAGTGCTA,0.371 z-score
TGTAGAGTAGCTTTCTGAGGGTGCTAG,-0.353 z-score
GCCGATTTCGGGACTGGAGACGTGCTA,2.5 z-score
TTAGATTTCGGGTCTCGATTAGTGCTA,2.33 z-score
TTAGATTTCAGTATCGATAAGTGCTAG,2.38 z-score
TCACAAGTTTCACGTCTTACTGTGCTA,1.12 z-score
TTAGGTATCCTTATACTTTAGTGCTAG,4.46 z-score
TTAGACTTCAGTATCGATTAGTGCTAG,0.549 z-score

# Series 6 — technique: aptamer microarray, sandwich; molecule type: DNA with 2'F-ANA; matrix: in vitro; concentration: 200 nM; with: Cy3 exosite-II aptamer, 400 nM; reading: higher = stronger binding; oligonucleotide: GGTTGGTGTGGTTGG
# Target: Prothrombin, mature alpha-thrombin (F2, Homo sapiens, UniProt P00734)
# Setting: whole 15-mer aptamer, many near background
Modification,mean fluorescence intensity [a.u.]
2'F-ANA at 1 2 3 6 9 11 12 13,236
2'F-ANA at 1 4 7 8 9 10 13,49.3
2'F-ANA at 7 11 13,533
2'F-ANA at 1 4 6 7 9 14 15,51.9
2'F-ANA at 1 4 9 10 12,58
2'F-ANA at 1 5 7 8 10 15,51.6
2'F-ANA at 2 3 5 6 7 8 9 12 14,55.3
2'F-ANA at 1 6 7 10 11 12 14 15,52.7
2'F-ANA at 1 2 5 7 9 14,45
2'F-ANA at 1 4 5 6 9 10 13 14 15,46.2
2'F-ANA at 1 2 3 5 6 7 8 10 12 13 14,50.9
2'F-ANA at 2 7 8 12 13 14 15,231
2'F-ANA at 6 9 10 12 14 15,109
2'F-ANA at 2 3 4 7 8 9 13,490
2'F-ANA at 2 6 8 11 14,130
2'F-ANA at 2 3 5 8 9 13 15,81.7
2'F-ANA at 1 2 5 7 12 13,78
2'F-ANA at 1 2 3 4 5 8 12 13 15,87.3
2'F-ANA at 2 5 6 7 8 11 12 13 15,89
2'F-ANA at 2 4 5 8 11 15,62.1
2'F-ANA at 1 2 3 5 6 7 8 10 11,50.8
2'F-ANA at 1 2 4 10 13 14,45.8
2'F-ANA at 1 3 5 7 9 11 12 15,98.3

# Mixed results
Molecule,target,test,system,conditions,scale,quantity,result
"PhoQ, residues 284 288 289 292 302 303 SNSSNI","PhoP, residues 12 14 15 18 19 SGWQI (Escherichia coli, UniProt P23836)","Sort-seq, refers to: YFP reporter",E. coli,"PhoQ-PhoP variant library, with: 10 µM Mg2+","reference: high Mg2+ state, higher = stronger signaling",fold induction,0.463

# A few entries again (series 2):
Oligonucleotide,E-score
CGGACCAG,0.181
GCGCATGA,0.217
GAATGTAA,-0.0877
AAAGCTGT,-0.0208
GGAGATAA,-0.0508
ACGCCTCC,-0.0132
ACTTATTA,-0.192
TCCTCCAA,-0.267
AGATTGTC,0.0141
GGGTCTAC,-0.07
GCAGTCAA,-0.0742
ATTGCGGA,0.102
GGCTAACC,0.0204
CTAGCTAG,-0.0313
CCACTCGG,-0.0767
